Results collected from several papers.
Each numbered part is a random draw from the data of one study; scales do not carry over between parts.

Block 1
Target: RNA binding protein fox-1 homolog 2, RRM domain, GST-SBP tag (RBFOX2, Homo sapiens, UniProt O43251-10, residues 100-194)
Technique: RNA Bind-n-Seq
Form: RNA
Matrix: in vitro
Concentration: 365 nM
Setting: natural RNA segment, single round, ends assumed
Relative to: no-protein control
Direction: higher = stronger binding
Shared flanks, not repeated: GGGAGUUCUACAGUCCGACGAUC … UGGAAUUCUCGGGUGCCAA
Target sequence (chain): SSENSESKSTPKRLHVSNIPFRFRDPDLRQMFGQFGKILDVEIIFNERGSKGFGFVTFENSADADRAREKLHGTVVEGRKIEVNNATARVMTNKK
| Strand | RBNS enrichment (R) |
| --- | --- |
| CUCCACGGAGCCAGGCCUCCUCCCAUGGGGUGUCCCAGUGUAUAACUUUAUGACUUAGUUCUUCAUUUCCUGGGGCCUUAUCUUCACUGUGAACAAUAAAGUUUGAACAC | 0.305 |
| AAAAAGCCAGUGCCUUCUGGCUGGUGCCGAGGCUUGGGUGAAAUGUUAAAUAUGCACUGACCUCAGAAAGUCGAGUUCAAAAGGGAGAUAAAAUUGCCAAAGUGAUCCAA | 0.491 |
| UUUUUAGAAGUAUUAUGUGGUAUUUUACUGUGUAUCACUUCUGUGGUAAACAUGUGAAGUCCUUUGGCUUAGUCAUACUUCAUAACUUUUGAACGUUGGGUUUUUUGUUG | 0.359 |
| UCUGCCAUUUGUGGAAACAACGUAAAUUCUACUUAAGUGUAAACAAGGCAAGCCUCAGACCAGCAAUAAAUUACUCAGUUUGGAUAACAUUAUUUUGUGCAGUUAAUCAA | 0.31 |
| UUCAUGUACAAGGCCCCUCUGCAACUGGAGAGAAAAUUAAUUCCUAUCCCGUGAGUGGAUUGUGAGAAAUUCCACCCACGUGGAGACAGCUUACUGCAGCACUGUUGGUG | 0.28 |
| GUUUUGAACCCUUGAACCUGUGAUUGUGACCCAUGAGGGGGGACCUUUCAGUGCUAAAGCUGAUCAUGUGUGUAGCCAGAAAGGUACUUUUUUUCUUUUAAUUUUUGUUU | 1.46 |
| AGAAAUUUAUAAUGAAAAGAAGAUGAAUUUCAUUAUGUAAACGCUCAGGCAUGACUACGCUGUUUGAAACAGACAGAUGUUUACUCUUCCUUGUAAUGAGUAGGUUUGGA | 1.22 |
| UAAUAAAAUGCUAACCUGCCCAGGGUUCCUAUUACUGUGGGAGGGGUCCCCUGGGCCAGCCAGCGAUUCUACUCCCUCAACGUGUAUCUCUCCUUCCCUCCCACCACCAC | 0.564 |

Block 2
Target: Ras GTPase-activating protein-binding protein 1, RRM domain (G3BP1, Homo sapiens, UniProt Q13283)
UniProt Q13283, sequence (whole entry, looked up): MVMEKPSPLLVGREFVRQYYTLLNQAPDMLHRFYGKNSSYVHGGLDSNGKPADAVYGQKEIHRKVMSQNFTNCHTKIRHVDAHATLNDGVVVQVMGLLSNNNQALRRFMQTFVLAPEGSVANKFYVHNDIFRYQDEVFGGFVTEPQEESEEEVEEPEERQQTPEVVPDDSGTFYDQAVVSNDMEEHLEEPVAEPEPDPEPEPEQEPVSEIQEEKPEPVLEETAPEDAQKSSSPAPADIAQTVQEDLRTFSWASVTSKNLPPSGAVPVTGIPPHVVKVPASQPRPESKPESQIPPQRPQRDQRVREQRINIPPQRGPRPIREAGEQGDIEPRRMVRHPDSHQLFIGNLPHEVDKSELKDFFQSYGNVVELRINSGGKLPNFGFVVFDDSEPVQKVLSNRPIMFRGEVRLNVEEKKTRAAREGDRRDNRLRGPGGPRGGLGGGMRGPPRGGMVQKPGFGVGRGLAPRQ
Technique: RNA Bind-n-Seq
Form: RNA
Matrix: in vitro
Concentration: 1 µM
Setting: whole 134-nt RNA, ends assumed
Added: 150 mM KCl
Relative to: input library
Direction: higher = stronger binding
Shared flanks, not repeated: GGGAGUUCUACAGUCCGACGAUC … UGGAAUUCUCGGGUGUCAAGG
| Strand | log2 enrichment |
| --- | --- |
| CAAGUCCUGUGCUACACAUCGUAUGUACCGAAUCGGUUUUUUUGGAAAGGAAAGGAAAGUAUUAUGUUACGCCGUUCGGAUCUGCACUUC | -0.217 |
| UAACUUUAGAGGAGGAUCUGAUGGAUAUGGCAGUGGACGUGGAUUUGGGGAUGGCUAUAAUGGGUAGGGAGGAGGACCUGGAGGUGGCAA | -0.243 |
| UUCAUUCCUUGGAAGAAGCUGUACCAUCGAUACCUGAUGAAUGAAGAGCAAGCUGUCAGCAAAGUGGACGGCAUCCUGUCUAACUGUGGC | -0.128 |
| CCUGUGCUACACAUCGUAUGUACCGAAUCGGGGCCCCCCGGGCCCCCCGGGCCCCCCGGGAAAGUAUUAUGUUACGCCGUUCGGAUCUGC | -0.68 |
| CACAGACAACACGCACCCACACAGACACAGAGGGAAGGGGUUGGGAUGGGGACAGGGUGCACAGCAGCGCGGGGUAGGACCCCAGCCCCU | -0.109 |
| CUCAAGUCCUGUGCUACACAUCGUAUGUACCGAAUCGGGAGGGUUUGGGAGGGAAAGUAUUAUGUUACGCCGUUCGGAUCUGCACUUCCA | 0.849 |
| CAAGUCCUGUGCUACACAUCGUAUGUACCGAAUCGGGGAAAGGGGAAAGGAAAGGGAAAGUAUUAUGUUACGCCGUUCGGAUCUGCACUU | -0.291 |
| GGGGAGGUGGAUUUUGUUUAUUUUUUUAGCUCAUUUCCAGGGGUGGGAAUUUUUUUUUAAUAUGUGUCAUGAAUAAAGUUGUUUUUGAAA | 1.45 |
| CAAGUCCUGUGCUACACAUCGUAUGUACCGAAUCAAAUUUAAACCCAAAUUUAAAAAAGUAUUAUGUUACGCCGUUCGGAUCUGCACUUC | -0.129 |

Block 3
Target: RING finger protein unkempt homolog, zinc fingers 1-6, GST-SBP tag (UNK, Homo sapiens, UniProt Q9C0B0, residues 30-357)
UniProt Q9C0B0, sequence (30-357, looked up): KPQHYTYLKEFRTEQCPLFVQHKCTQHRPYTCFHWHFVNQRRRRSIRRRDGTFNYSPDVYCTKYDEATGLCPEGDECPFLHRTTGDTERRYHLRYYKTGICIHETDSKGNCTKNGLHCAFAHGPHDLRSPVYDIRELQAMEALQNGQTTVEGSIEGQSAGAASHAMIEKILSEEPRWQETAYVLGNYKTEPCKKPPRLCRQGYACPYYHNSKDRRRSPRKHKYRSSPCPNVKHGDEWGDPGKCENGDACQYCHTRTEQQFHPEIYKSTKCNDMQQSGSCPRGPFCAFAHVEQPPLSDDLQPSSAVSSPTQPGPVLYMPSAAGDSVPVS
Technique: RNA Bind-n-Seq
Form: RNA
Matrix: in vitro
Concentration: not given
Setting: RNA with constant flanks, ends assumed
Relative to: input RNA pool
Direction: higher = stronger binding
Shared flanks, not repeated: GGGAGUUCUACAGUCCGACGAUC … CAACAGAGGAUUGAGCAUCA
| Strand | bound/input enrichment |
| --- | --- |
| UUAGCAGGUGGAGCCAUCUUCUGUGUUUCUACAUGGACAUAUACAGCCACACAAAUUGGAACCGAAUGGAACAUGUCCCCUGUUGGCAGAGUCACCCCAAAGGAAUGGAGAGAUCAGUAG | 0.394 ratio |
| UUGCUGUCCUCUUGCUGAUGGCUGCUAGAUUUAAUUUAUUUGCUUCCCUCCUUGAUAACAUCCGUGAUUCUGAUUUCAGUUUUUCAUUUGUUUUGCUUUUGUUUUUUUCCUCGUGUAACA | 2.03 ratio |
| AAUAUAAAAGAAUCUCCGAAGAGGCCAGAAACUAGAUCCUUUACUCCUGAAGAAUUCUUCCGUAUUUUCAAUAGAUCCAUUGAUGCCUUUAAGGACUUUAUGGUGGCAUCUGACACUAGU | 2.38 ratio |
| GUGGGAGAUUUGGUACUCAUCAUCCUAGACGAACGCCAUGACAAUUAUGUGUUAUUUACUGUCCGUCCUACUUUAUAUUUUCUACAUUCAGAGUCUCUACCUGCCCUGGAUCUCAAACCA | 0.458 ratio |
| AUUUUGGCUCUCAUUUCACUCUUCAGUGUUCCUGUUAUUUAUGAACGGCAUCAGGCACAGACCGAUCAUUAUCUAGGACUUGCAAAUAAGAAUGUUAAAGAUGCUAUGGCUAAAAUCCAA | 0.198 ratio |
| GUUGACUCCCUCAAUGGAUUGGUUUACAUAGGUCAAAGAGGGGAUAACAUCCCAAAGAUAUCCGUGUUCACAGAGGAUGGAUAUUUCCUACGAGCCUGGAAUUAUACAGUUGACACACCU | 0.164 ratio |
| GAGGAGGAGGGAAAGUCUAGCUCACCAAAGAAAAAGAUCAAGUUGAAGAAAAGUAAAAAUGCCGCAACUGAAGGAACCAGUACCCAGAAAGAAUUUGAAGUGAAAGAUCCUGAGCUGGAG | 0.368 ratio |
| GAAAAUUUGCAUGCAGCAGCUUACCGGAAUGCCUUGGCUAAUCCCUUGUAUUGUCCUGACUACCGGAUUGGAAAAGUGACAUCAGAGGAGUUACAUUACUUCGUUCAGAACCAUUUCACA | 0.272 ratio |

Block 4
Target: Histone acetyltransferase KAT6A, winged helix 1, GST fusion (KAT6A, Homo sapiens, UniProt Q92794, residues 1-85)
Technique: protein binding microarray
Form: double-stranded DNA, one strand shown
Matrix: in vitro
Concentration: not given
Setting: 8-mer, flanks averaged, mean of 2 arrays, mostly near background
Relative to: not given
Direction: higher = stronger binding
Residues (chain): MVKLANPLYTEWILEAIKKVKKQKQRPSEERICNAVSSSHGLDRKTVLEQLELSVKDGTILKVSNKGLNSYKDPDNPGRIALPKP
| Strand | E-score |
| --- | --- |
| AGACGAAG | -0.141 |
| GTCTTTGA | -0.05 |
| AGGGACGG | 0.268 |
| GCTATACA | 0.00588 |
| CTACCTAG | -0.115 |
| ACGAGATC | -0.137 |
| CTCCTTCC | -0.091 |
| CACACGCG | 0.346 |
| CCGTGGTA | 0.0605 |
| ACAGCTAC | -0.216 |
| GATCCGAC | 0.242 |
| CTGCGGTC | 0.198 |
| ACGTTGTG | -0.0393 |
| ATCTCTGC | -0.128 |
| AGGATTCC | -0.173 |
| AGACCTAT | -0.0777 |
| ACGGGTTC | 0.314 |
| AATTTCGA | -0.149 |
| AAGTAAGA | -0.0788 |
| AGTTGCCC | 0.0143 |
| CCGAACGC | 0.186 |
| CATAGGGC | 0.0829 |

Some of these lines once more (block 2):
| Strand | log2 enrichment |
| --- | --- |
| CAAGUCCUGUGCUACACAUCGUAUGUACCGAAUCGGUUUUUUUGGAAAGGAAAGGAAAGUAUUAUGUUACGCCGUUCGGAUCUGCACUUC | -0.217 |
| UAACUUUAGAGGAGGAUCUGAUGGAUAUGGCAGUGGACGUGGAUUUGGGGAUGGCUAUAAUGGGUAGGGAGGAGGACCUGGAGGUGGCAA | -0.243 |
| UUCAUUCCUUGGAAGAAGCUGUACCAUCGAUACCUGAUGAAUGAAGAGCAAGCUGUCAGCAAAGUGGACGGCAUCCUGUCUAACUGUGGC | -0.128 |
| CCUGUGCUACACAUCGUAUGUACCGAAUCGGGGCCCCCCGGGCCCCCCGGGCCCCCCGGGAAAGUAUUAUGUUACGCCGUUCGGAUCUGC | -0.68 |
| CACAGACAACACGCACCCACACAGACACAGAGGGAAGGGGUUGGGAUGGGGACAGGGUGCACAGCAGCGCGGGGUAGGACCCCAGCCCCU | -0.109 |
